# Measured values collected from several papers.
# Protocols differ between the studies behind these lines. ± marks the error that the study gave.
# ABCG2: Broad substrate specificity ATP-binding cassette transporter ABCG2 (ABCG2, Homo sapiens, UniProt Q9UNQ0)
# Sequence of UniProt Q9UNQ0 (whole entry, looked up): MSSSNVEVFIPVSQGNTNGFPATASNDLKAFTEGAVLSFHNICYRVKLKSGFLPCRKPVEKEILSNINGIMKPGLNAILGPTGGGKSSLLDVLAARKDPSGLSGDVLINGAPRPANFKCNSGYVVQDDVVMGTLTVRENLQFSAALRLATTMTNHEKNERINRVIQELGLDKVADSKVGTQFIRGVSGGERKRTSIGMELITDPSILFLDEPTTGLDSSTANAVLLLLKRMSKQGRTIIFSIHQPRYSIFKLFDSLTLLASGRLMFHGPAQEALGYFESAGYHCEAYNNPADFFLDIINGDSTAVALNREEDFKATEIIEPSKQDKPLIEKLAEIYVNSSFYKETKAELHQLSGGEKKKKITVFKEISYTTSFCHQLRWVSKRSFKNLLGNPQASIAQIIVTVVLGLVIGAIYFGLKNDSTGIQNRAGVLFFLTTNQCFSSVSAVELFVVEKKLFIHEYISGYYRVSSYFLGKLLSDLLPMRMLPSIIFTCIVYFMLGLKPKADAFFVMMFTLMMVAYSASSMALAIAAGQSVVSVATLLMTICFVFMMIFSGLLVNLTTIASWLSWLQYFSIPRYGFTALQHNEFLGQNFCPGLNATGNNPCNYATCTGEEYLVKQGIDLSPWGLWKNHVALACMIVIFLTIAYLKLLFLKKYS
# Sequence of UniProt Q9NPD5 (whole entry, looked up): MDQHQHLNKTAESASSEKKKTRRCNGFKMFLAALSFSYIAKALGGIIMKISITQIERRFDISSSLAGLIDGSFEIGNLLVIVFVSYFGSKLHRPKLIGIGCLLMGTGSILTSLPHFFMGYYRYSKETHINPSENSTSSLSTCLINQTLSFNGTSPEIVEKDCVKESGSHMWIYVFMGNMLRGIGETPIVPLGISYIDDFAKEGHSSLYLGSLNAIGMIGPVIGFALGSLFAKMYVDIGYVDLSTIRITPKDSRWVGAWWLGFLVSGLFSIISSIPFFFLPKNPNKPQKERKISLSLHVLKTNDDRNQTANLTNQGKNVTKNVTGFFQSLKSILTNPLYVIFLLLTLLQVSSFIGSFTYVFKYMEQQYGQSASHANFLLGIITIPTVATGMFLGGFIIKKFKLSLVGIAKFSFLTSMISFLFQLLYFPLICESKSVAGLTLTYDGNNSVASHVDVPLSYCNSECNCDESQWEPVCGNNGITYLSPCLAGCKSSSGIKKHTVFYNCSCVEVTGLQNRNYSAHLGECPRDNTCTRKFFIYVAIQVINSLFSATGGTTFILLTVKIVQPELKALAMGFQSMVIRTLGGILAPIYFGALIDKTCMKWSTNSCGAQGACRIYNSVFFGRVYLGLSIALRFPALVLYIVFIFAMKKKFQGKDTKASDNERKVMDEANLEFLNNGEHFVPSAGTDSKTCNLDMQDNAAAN
SMILES,target or system,test,test system,conditions,scale,endpoint,value
C=C(NC(=O)c1csc(-c2nc3c(cc2O)-c2nc(cs2)C(=O)NC(C(C)O)C(=O)NC(=C(C)OC)c2nc(cs2)C(=O)NC2c4nc(cs4)C(=O)NC(COC(=O)c4c5c6c(cccc6n4O)COC(=O)C(OC4CC(C)(O)C(N(C)C)C(C)O4)C2OC5)c2nc-3cs2)n1)C(N)=O (stereo not drawn),,,"ICR mice, Streptococcus pneumoniae ATCC 49169 infected, immunocompromised, blood","intravenous, 32 mg/kg/day once daily",,AUC(0-t),4830 ng·h/mL
N#C[C@@H]1CC(F)(F)CN1C(=O)CNC(=O)c1ccnc2c(NC(=O)[C@H](CCCCNC(=O)CCOCCOCCOCCOCCOCCOCCNC(=O)CN3CCN(CC(=O)[O-])CCN(CC(=O)[O-])CCN(CC(=O)[O-])CC3)NC(=O)CCCc3ccc(I)cc3)cccc12.[177Lu+3],U-87 MG tumour model,,"host not given, blood","24 h, tumour-bearing",,tracer uptake,4.22 %ID/g
O=C1C2CC3CC1CC(C(=O)N1CCN(c4ccc([N+](=O)[O-])c5ncccc45)CC1)(C3)C2,Salmonella typhimurium,Ames test,TA100,"0.78 µg/well, with S9",reference: vehicle,revertant fold increase,1
N#C[C@@H]1CC(F)(F)CN1C(=O)CNC(=O)c1ccnc2c(NC(=O)[C@@H](N)CCCCNC(=O)CCOCCOCCOCCOCCOCCOCCNC(=O)CN3CCN(CC(=O)[O-])CCN(CC(=O)[O-])CCN(CC(=O)[O-])CC3)cccc12.[177Lu+3],U-87 MG tumour model,,"host not given, muscle","1 h, tumour-bearing",,tracer uptake,0.66 %ID/g
N#C[C@@H]1CCCN1C(=O)CNC(=O)c1ccnc2ccc(OCCCN3CCN(C(=O)CCc4ccc5c(c4)CN4CCN6CC(=O)[O][68Ga-]([O]C(=O)C4)([O]5)[O]c4ccc(CCC(=O)N5CCN(CCCOc7ccc8nccc(C(=O)NCC(=O)N9CCC[C@H]9C#N)c8c7)CC5)cc4C6)CC3)cc12,U-87 MG tumour model,,"host not given, stomach","2 h, tumour-bearing",,tracer uptake,1.91 %ID/g
CNc1nc(N)nc2c1ncn2[C@@H]1O[C@H](CO)[C@@H](O)[C@@]1(C)F,ABCG2,bidirectional transport,MDCKII transfected with human BCRP,10 µM,,Papp A to B,5.82 ± 0.25 ×10⁻⁶ cm/s
CNC(=O)C1CCCN(C(=O)C2CC3CCC2N3C(=O)[C@@H]2C[C@@H](O)CN2C(=O)NCc2cccc(Cl)c2F)C1 (mixture of isomers),CYP3A4 (human),"inhibitor, time-dependent inhibition",,"5.56 µM, preincubated with NADPH, with: testosterone substrate",reference: negative control,remaining activity,101%
CC(C)OCCOCc1ccc(OCC(O)CN(N=O)C(C)C)cc1 (stereo not drawn),Salmonella typhimurium,Ames test,TA1537,"15.8 µg/plate, without metabolic activation",reference: solvent control,revertant fold increase,1 fold
C[C@@]1(F)[C@H](O)[C@@H](CO)O[C@H]1n1cnc2c(=O)[nH]c(N)nc21,ABCG2,bidirectional transport,MDCKII transfected with human BCRP,10 µM,,Papp A to B,2.34 ± 0.25 ×10⁻⁶ cm/s
CCCCCC(=O)N[C@@H](Cc1ccccc1)C(=O)N[C@@H](CCCC)C(=O)N[C@@H](Cc1ccccc1)C(=O)[C@@]1(C)CO1,Trypanosoma brucei brucei,,"HepG2 cells, Lister 427",,reference: HepG2 CC50 over T. brucei EC50,selectivity index,< 1
CCN(CC)CC#CCNc1ccnc2cc(Cl)ccc12,Salmonella typhimurium,mini-Ames test,TA97a,"250.0 µg/well, without S9",,revertants per well,0
O=C(c1ccc(OCCN2CCCCC2)cc1)c1c(-c2ccc(O[C@@H]3O[C@H](C(=O)O)[C@@H](O)[C@H](O)[C@H]3O)cc2)sc2cc(O)ccc12,"SLCO1B3 (Homo sapiens, UniProt Q9NPD5)",,HEK293 expressing SLCO1B3,pH 7.4,,Vmax,13.6 pmol/min/mg protein

# A few entries again:
SMILES,target or system,test,test system,conditions,scale,endpoint,value
CCN(CC)CC#CCNc1ccnc2cc(Cl)ccc12,Salmonella typhimurium,mini-Ames test,TA97a,"250.0 µg/well, without S9",,revertants per well,0
O=C(c1ccc(OCCN2CCCCC2)cc1)c1c(-c2ccc(O[C@@H]3O[C@H](C(=O)O)[C@@H](O)[C@H](O)[C@H]3O)cc2)sc2cc(O)ccc12,"SLCO1B3 (Homo sapiens, UniProt Q9NPD5)",,HEK293 expressing SLCO1B3,pH 7.4,,Vmax,13.6 pmol/min/mg protein
